# Measured values collected from several papers.
# Each numbered part is a random draw from the data of one study; scales do not carry over between parts. Substitutions count along the parent as printed.

# Study 1
# Target: Interferon regulatory factor 3, full length, phosphomimetic (IRF3, Homo sapiens, UniProt Q14653, residues 1-427, S386D/S396D/S398D/S402D/T404D/S405D)
# Method: protein-binding microarray
# Molecule type: double-stranded DNA, one strand shown
# Sample: in vitro
# Tested at: 2540 nM top
# Notes: 60-bp whole probe
# Together with: salmon DNA 0.4 mg/ml
# Reference: random background probes
# Direction: higher = stronger binding
# Shared flanks, not repeated: GCCTAGCAC … GTCTTGATTCGCTTGACGCTGCTG
# Construct (chain): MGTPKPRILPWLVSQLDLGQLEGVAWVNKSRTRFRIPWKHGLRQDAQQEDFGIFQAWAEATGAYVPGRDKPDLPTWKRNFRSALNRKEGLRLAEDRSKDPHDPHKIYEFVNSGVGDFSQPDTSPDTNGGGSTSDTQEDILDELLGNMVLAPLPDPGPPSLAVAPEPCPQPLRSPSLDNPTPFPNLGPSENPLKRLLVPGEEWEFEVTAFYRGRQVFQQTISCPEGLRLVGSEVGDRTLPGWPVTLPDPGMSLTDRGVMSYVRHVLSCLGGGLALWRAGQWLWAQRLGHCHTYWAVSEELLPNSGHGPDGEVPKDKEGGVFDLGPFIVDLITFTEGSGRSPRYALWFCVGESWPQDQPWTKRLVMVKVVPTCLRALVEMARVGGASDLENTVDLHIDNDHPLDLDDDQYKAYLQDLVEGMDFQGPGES
Sequence,fitted relative affinity [z-score]
GACGGTTTCGGGTTGCGGGACGTGCTA,4.91
TCATTTTTTTTTTCATCATTGTGCTAG,1.48
TTAGGTATCCTTCTACTTTAGTGCTAG,5.04
TTAGGTTTCCTTATCGTTTAGTGCTAG,8.9
TTAAGTTTCGGTATCGGTTAGTGCTAG,9.56
TTAGATTTCGGGTATCGGTTAGTGCTA,2.04
TTAGGTATCGCCACTGGGTTAGTGCTA,-0.252
ACAAAGATTTTTATCAAATGGTGCTAG,0.0636

# Study 2
# Change: L94S
# Target: ABI1, truncated, D143A, DHFR fusion (Arabidopsis thaliana)
# Method: DHFR PCA, deep sequencing
# Sample: yeast
# Notes: methotrexate growth selection, single substitutions
# Reference: wild-type fitted maximum
# Direction: higher = stronger binding
# Starting sequence: PYL1, truncated, DHFR fusion (Arabidopsis thaliana); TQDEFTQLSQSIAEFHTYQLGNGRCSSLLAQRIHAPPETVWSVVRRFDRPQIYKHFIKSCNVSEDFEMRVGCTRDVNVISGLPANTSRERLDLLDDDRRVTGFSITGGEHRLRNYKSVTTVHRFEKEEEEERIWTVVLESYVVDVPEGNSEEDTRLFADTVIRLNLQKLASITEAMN
together with,relative binding score
(+)-ABA 1.4 µM,4.27%
(+)-ABA 58 µM,36.4%
(+)-ABA 200 µM,55.4%
(+)-ABA 17 µM,11.9%
(+)-ABA 0 µM,-0.181%
(+)-ABA 0.11 µM,0.189%

# Study 3
# Target: tungstate, free oxyanion
# Method: microfluidic competitive inhibition
# Sample: in vitro, cell-free expressed
# Tested at: not given
# Notes: derived from inhibition constants, unchanged parent 2230 nM
# Direction: lower = stronger binding
# Starting sequence: PafA, mature enzyme, eGFP fusion (Elizabethkingia meningoseptica, UniProt Q9KJX5); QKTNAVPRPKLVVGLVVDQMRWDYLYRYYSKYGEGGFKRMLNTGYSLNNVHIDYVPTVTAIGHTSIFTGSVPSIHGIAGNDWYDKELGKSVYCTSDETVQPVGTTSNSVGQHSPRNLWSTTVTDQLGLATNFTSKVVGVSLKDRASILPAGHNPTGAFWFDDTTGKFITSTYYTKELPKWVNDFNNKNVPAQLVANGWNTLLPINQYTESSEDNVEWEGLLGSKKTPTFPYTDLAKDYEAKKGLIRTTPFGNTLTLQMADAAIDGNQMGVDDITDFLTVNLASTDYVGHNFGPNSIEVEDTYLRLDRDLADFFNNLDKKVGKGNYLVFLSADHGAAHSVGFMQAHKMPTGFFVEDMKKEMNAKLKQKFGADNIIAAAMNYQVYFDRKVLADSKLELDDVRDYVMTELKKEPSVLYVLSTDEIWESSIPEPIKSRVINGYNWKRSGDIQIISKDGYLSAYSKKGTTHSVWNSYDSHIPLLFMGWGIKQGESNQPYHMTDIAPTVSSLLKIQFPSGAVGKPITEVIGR
Change,oxyanion analog dissociation constant
L417V,2.29 µM
F313G,1.41 µM
D420G,2.44 µM
P230G,1.78 µM
S134G,2.16 µM
V55G,1.72 µM
R443G,2.89 µM
Y83G,721 nM
T43V,2.68 µM
K2V,2.73 µM
G79A,2.3 µM
T3V,2.4 µM
L47G,2.04 µM
I449V,2.75 µM
Q19V,3.27 µM
T171V,2.03 µM
R307V,1.82 µM
L506V,2.36 µM
W423G,2.04 µM
H466G,25.1 µM
D420V,2.54 µM
V122G,1.07 µM

# Study 4
# Target: UDP-N-acetylglucosamine--peptide N-acetylglucosaminyltransferase 110 kDa subunit (OGT, Homo sapiens, UniProt O15294)
# Chain of UniProt O15294 (whole entry, looked up): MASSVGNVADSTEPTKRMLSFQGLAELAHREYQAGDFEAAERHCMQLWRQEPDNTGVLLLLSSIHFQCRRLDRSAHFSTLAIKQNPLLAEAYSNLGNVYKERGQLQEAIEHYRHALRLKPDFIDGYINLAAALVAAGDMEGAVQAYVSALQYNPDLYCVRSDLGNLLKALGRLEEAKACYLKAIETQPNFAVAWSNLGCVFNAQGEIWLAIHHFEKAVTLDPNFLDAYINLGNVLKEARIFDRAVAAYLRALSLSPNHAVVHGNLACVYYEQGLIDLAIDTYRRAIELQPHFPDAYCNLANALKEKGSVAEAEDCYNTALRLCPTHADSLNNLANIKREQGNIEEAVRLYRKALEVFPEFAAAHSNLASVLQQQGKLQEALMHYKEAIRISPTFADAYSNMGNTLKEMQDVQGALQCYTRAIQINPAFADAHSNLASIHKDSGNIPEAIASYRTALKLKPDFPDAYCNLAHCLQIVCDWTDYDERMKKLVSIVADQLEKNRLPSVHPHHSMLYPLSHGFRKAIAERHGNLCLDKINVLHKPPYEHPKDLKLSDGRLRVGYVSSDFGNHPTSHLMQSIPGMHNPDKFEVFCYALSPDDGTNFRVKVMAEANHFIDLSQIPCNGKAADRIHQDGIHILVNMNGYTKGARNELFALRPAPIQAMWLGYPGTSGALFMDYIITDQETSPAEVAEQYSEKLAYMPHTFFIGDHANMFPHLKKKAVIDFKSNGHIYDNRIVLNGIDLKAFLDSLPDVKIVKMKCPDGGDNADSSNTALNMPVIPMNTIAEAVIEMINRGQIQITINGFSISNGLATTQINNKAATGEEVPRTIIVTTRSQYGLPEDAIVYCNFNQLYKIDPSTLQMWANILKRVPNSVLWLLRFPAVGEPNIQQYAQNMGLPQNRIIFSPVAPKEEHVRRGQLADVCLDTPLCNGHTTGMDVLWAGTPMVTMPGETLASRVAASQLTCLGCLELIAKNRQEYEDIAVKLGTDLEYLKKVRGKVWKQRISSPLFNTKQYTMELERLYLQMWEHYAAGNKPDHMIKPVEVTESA
# Observed: binding
# Method: phage display NGS
# Molecule type: peptide
# Reference: input library
Molecule,minimum log2 enrichment ratio
MWQHGPMGMTSHYP,1.62
NRIFSPAYQINTYI,1.12
KYTPLYQIHAMPQAV,1.37
VGMNQNAYMPMYQIH,3.37
YSLHIAQHHDAYTIH,2.79
SINWFLPQYQIIWSQ,4.74
TYSDTNHHAHQWLLK,1.8
SLFLPAYPIEATYR,4.24
HNFHYYHAQPEWSPM,1.93
YPPYAFHQATHHHHK,3.25
SYRPQYFITYEKVSA,3.83
HDTMHHFYHKREWTQ,1.52
HRGQGDEEHWHRHQA,2.57
SRTLTPMYQIHPFTS,1.17
SNKQDLMPAYQIQYG,3.3
TGTKYVPMYQINPY,3.4
VPLYHERHHHGPHE,2.71
RHTQIKHHVPHQLF,2.04

# A few entries again (study 3):
Change,oxyanion analog dissociation constant
D420V,2.54 µM
G79A,2.3 µM
D420G,2.44 µM
Q19V,3.27 µM
W423G,2.04 µM
T3V,2.4 µM
